Measured values pooled from the literature.
Protocols differ between the studies behind these lines.
B1: coatomer subunit beta, human; sequence looked up; chain TAAENVCYTLINVPMDSEPPSEISLKNDLEKGDVKSKTEALKKVIIMILNGEKLPGLLMTIIRFVLPLQDHTIKKLLLVFWEIVPKTTPDGRLLHEMILVCDAYRKDLQHPNEFIRGSTLRFLCKLKEAELLEPLMPAIRACLEHRHSYVRRNAVLAIYTIYRNFEHLIPDAPELIHDFLVNEKDASCKRNAFMMLIHADQDRALDYLSTCIDQVQTFGDILQLVIVELIYKVCHANPSERARFIRCIYNLLQSSSPAVKYEAAGTLVTLSSAPTAIKAAAQCYIDLIIKESDNNVKLIVLDRLIELKEHPAHERVLQDLVMDILRVLSTPDLEVRKKTLQLALDLVSSRNVEELVIVLKKEVIKTNNVSEHEDTDKYRQLLVRTLHSCSVRFPDMAANVIPVLMEFLSDNNEAAAADVLEFVREAIQRFDNLRMLIVEKMLEVFHAIKSVKIYRGALWILGEYCSTKEDIQSVMTEIRRSLGEIPIVESEIKKEAGELKPEEEITVGPVQKLVTEMGTYATQSALSSSRPTKKEEDRPPLRGFLLDGDFFVAASLATTLTKIALRYVALVQEKKKQNSFVAEAMLLMATILHLGKSSLPKKPITDDDVDRISLCLKVLSECSPLMNDIFNKECRQSLSHMLSAKLEEEKLSQKKESEKRNVTVQPDDPISFMQLTAKNEMNCKEDQFQLSLLAAMGNTQRKEAADPLASKLNKVTQLTGFSDPVYAEAYVHVNQYDIVLDVLVVNQTSDTLQNCTLELATLGDLKLVEKPSPLTLAPHDFANIKANVKVASTENGIIFGNIVYDVSGAASDRNCVVLSDIHIDIMDYIQPATCTDAEFRQMWAEFEWENKVTVNTNMVDLNDYLQHILKSTNMKCLTPEKALSGYCGFMAANLYARSIFGEDALANVSIEKPIHQGPDAAVTGHIRIRAKSQGMALSLGDKINLSQKKTSI

| Substance | target or system | test | test system | conditions | scale | quantity | value |
| --- | --- | --- | --- | --- | --- | --- | --- |
| B1 (coatomer subunit beta, human) | CYB5R4 knockout human cells | PP4 interaction, 3xFLAG-PP4C IP-MS | – | concentration not given | relative to: CYB5R4 KO over parental | log2 fold change | 0.0142 |
| CTTTCATGCG (PNA, CPP-conjugated) | Salmonella enterica serovar Typhimurium | – | peptide, SL1344 | 18 h | – | MIC | 10 µM |
| colistin | Klebsiella pneumoniae | broth microdilution | ATCC 13883 | – | – | MIC | 4 µg/mL |
| gentamicin | Klebsiella pneumoniae | broth microdilution | ATCC 43816 wild type, cation-adjusted MHB | – | – | MIC | < 0.5 µg/mL |
| human Ku80 | CYB5R4 knockout human cells | PP4 interaction, 3xFLAG-PP4C IP-MS | – | concentration not given | relative to: CYB5R4 KO over parental | log2 fold change | -0.1 |
| gentamicin sulfate | Pseudomonas aeruginosa | – | ATCC 27853, susceptible | 18 h, 37 °C, dark | – | MIC | 0.5 µM |
| DAPT | Streptococcus pneumoniae | – | ATCC 49619, wild type, CAMHB, lysed horse blood | – | – | MIC | 12.5 µg/mL |
| colistin | Staphylococcus aureus | – | MRSA 109, RPMI with 10% FBS | 18 to 24 h, 37 °C | – | MIC | 18.5 µM |
| colistin | Pseudomonas aeruginosa | – | PER-producing clinical isolate R13-94 | – | – | MIC | 0.5 µg/mL |
| colistin | Pseudomonas aeruginosa | broth microdilution | clinical isolate RKI-No_254/15 | – | – | MIC | 1 µg/mL |
